Measurements pooled from the literature.
Parts stem from different laboratories: compare values within a part only. Substitutions count along the parent as printed.

Sample 1 — target: CCNB2, cyclin fold, Cln2 fusion (human); technique: yeast growth competition, sequencing; sample: yeast; setting: strong parent motif; reference: not given; direction: higher = stronger binding; measurement: normalised enrichment score
Starting sequence: PKMYT1 docking peptide (human); SFEPRNLLSLFED; partner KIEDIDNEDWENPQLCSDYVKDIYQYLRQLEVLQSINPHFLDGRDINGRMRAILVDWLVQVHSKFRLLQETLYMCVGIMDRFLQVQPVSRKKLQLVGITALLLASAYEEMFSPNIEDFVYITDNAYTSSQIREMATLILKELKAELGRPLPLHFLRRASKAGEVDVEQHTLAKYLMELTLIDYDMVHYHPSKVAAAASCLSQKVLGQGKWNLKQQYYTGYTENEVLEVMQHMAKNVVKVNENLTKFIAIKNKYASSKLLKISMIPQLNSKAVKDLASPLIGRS
L8F: 0.643
E12I: 0.357
P4Q: 0.496
N6R: 0.336
S1Y: 1.45
D13R: 0.357
L10P: -1.13
S9N: 0.837
P4T: -0.17
S9R: 0.988
F11T: -0.426
R5G: -0.289
N6P: -0.349
S1D: 1.73
E12N: 0.966

Sample 2 — technique: RNA Bind-n-Seq; molecule type: RNA; sample: in vitro; tested at: not given; reference: input RNA pool; direction: higher = stronger binding; measurement: bound/input enrichment
Target: RING finger protein unkempt homolog, zinc fingers 1-6, GST-SBP tag (UNK, Homo sapiens, UniProt Q9C0B0, residues 30-357)
Chain of UniProt Q9C0B0 (30-357, looked up): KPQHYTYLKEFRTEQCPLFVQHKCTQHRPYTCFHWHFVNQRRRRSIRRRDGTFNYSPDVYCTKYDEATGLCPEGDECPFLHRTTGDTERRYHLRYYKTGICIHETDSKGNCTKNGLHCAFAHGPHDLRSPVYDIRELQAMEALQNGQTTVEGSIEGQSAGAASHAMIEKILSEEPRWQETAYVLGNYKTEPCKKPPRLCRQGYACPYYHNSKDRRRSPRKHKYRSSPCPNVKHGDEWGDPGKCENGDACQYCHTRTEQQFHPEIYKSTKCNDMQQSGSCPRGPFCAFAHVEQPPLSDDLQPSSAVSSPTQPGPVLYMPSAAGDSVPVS
Setting: RNA with constant flanks, human and mouse sites, ends assumed
Shared flanks, not repeated: GGGAGUUCUACAGUCCGACGAUC … CAACAGAGGAUUGAGCAUCA
UCUGGAGUUCUUAAUGAUAGUUUGUCUGGUGGAAUGCAGUUGCUUCCAGAUCCUUUAUAUUCUCUUCCUACUGAUAAUACUUACCUUUUAACAAUAACUUCCACUGAUAAUGGCAGAAUU: 0.772 ratio
UUUAAGGAUUCUAUGCUGGCAUCUAUGUUUAGUGGUCGUUUCCCUCUAAAAACAGAUGAAUCUGGGGCGUGCAUUAUUAACCGUGAUGGACAUCUAUUCAAAUACAUUUUGGACUACCUG: 0.232 ratio
AGGCUUGGUUGUUUCAAUCUAACUGUCAAAGGUCAUGCUAAAUGUGUAGAAGUAGUGAAAACUUUUAACUUGCCAUUGCUGAUGCUCGGUGGAGGAGGCUACACAAUCCGGAAUGUUGCC: 0.447 ratio
UGUAUUGGUCGGUGGUCCUGCCCCUAAAGUCAAGCCCCUACAUCAGUUUUACAGUAUAAAUACUCGUACUACCUUAUAAGGAAGCACUUAGUGGACUCCUUAAAGUUCCAUUUGCUAAUG: 0.114 ratio
UGCACUCUUCUGUUCAUUCUGACCCCUUCCUCAACCUCUUCACGCUGGCAUGUCCUUUUGUAGCAGUCUGUAACUUAACUAUAGUAUAAUGAAAAGAAUGACCUAUAAUAUAGGUGUUUU: 4.73 ratio
GGUCACACCAGGCCUAAGAAGGCAGAAGUUGAAUCAAUUGAACUAGGGCACUAAACUGAAUAGUUGACAGUGUCAUUUUAUGUUGGAUUAUUAAUUCCUGUUUUUCUUUCUGCUAUCUGU: 0.193 ratio
UGUGUGUGUGUGAGAGAGAGAGAGAGAGAGAGAGAGAGAGAGAGAGAGAGAGAUCUACCCAUUAGAAUUGAUUUAGGUGCCCAUUGCAUCUUUUGUACUAUGGAGUUGUUUACAGUAAGC: 30.4 ratio
CCAUUUGACCCAUUGACCCUGCCAGAGAAGCCCCUGGCUGGAGACCUACCAGUAGACAUGGAAUUUGGAGAGGAUCUACUGGAAUCCCAGACUGCCCCAACUCGAGGAUGGGCCCCCCCU: 0.295 ratio

Sample 3 — technique: competition protein-binding microarray; molecule type: double-stranded DNA, one strand shown; sample: in vitro; tested at: 2 µM; with: Pho4 competitor, 0.05 µM; direction: higher = stronger binding; measurement: fluorescence intensity; shared flanks, not repeated: … GTCTTGATTCGCTTGACGCTGCTG
Target: Centromere-binding protein 1, full length, His-tagged (CBF1, Saccharomyces cerevisiae, UniProt P17106, residues 1-351)
Chain of UniProt P17106 (whole entry, looked up): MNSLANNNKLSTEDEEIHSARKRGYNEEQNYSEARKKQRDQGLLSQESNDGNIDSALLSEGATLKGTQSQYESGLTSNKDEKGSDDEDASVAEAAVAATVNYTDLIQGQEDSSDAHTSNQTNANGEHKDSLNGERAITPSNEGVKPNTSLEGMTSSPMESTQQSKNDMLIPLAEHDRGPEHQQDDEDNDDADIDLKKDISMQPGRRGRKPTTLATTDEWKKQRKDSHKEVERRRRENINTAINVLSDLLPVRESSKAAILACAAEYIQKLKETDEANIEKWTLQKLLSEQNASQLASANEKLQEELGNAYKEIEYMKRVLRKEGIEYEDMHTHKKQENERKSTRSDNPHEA
Setting: whole 60-bp probe, lowest competitor level
GTCTTGTCTCATTTTCACGTGTGATTCCCCACTTCA: 562 a.u.
AAAGCGGTAATTTGGGCCGTGGGTGCAGATATCTAT: 83.1 a.u.
TGGCTTTGCTAACGACATGCGTGAAGAAAAGCGGTA: 73 a.u.
TTTCTGAGCGCCTACCACGTGGAGAGAGCTAAGTGC: 667 a.u.
CGTCCTAGCGATTGAAATGTGGGTGCCATGAGGAAG: 72.9 a.u.
CACTCTGCTCACCGCTGCGTGCTTTTTGAACAAATT: 82.1 a.u.
CTAACGAAGGTTTGGCTAGTGGGTGACAAGCCAAGT: 68 a.u.
AGAGCGTCGTTTGCTTACGTGATGGTTAAGTGCCTT: 65.8 a.u.
GAAGTCCCTAGCTTCCACGGGATGTTTCAGCATTAA: 80.8 a.u.
TGCGCAACAACTTTTCACGTGTTCTTATGTCTAGAA: 1400 a.u.
AAAGCGGTAATTTGTCACCGCACTTCACATATCTAT: 69.6 a.u.
GGTCATTGATGCTTGCATGTGCCGAGAAGCGGGACA: 130 a.u.
GAATATAGAGGTACGCTCGTGTCCAAGGACAACTAC: 72 a.u.
GTCTTGTCTCATTTTCACGTGTGCTTCCCCACTTCA: 623 a.u.
CGGGGTTAAGTTTGTGGAGTGGGTGGCTTGCAGCAG: 61.9 a.u.
TGGACCTGGCATACTACCGTGCCAGTAAACGTAGGA: 57.9 a.u.
TAACTGGTTCAGAAACACGTTCCAACAATGGCTTGA: 91.2 a.u.
TATGATCCCTCCCATCACATGGACACTTTTAAGCAA: 338 a.u.
AGGCAGCAATATTGGCGTGTGCCGCTGAATACATTC: 70.9 a.u.

Sample 4 — technique: DHFR PCA, dose-response; sample: yeast; setting: Hill fit, mean, not affinity; with: (+)-ABA, dose series; direction: lower = more sensitive; measurement: ABA EC50
Target: ABI1, truncated, D143A, DHFR fusion (Arabidopsis thaliana, UniProt P49597)
Starting sequence: PYL1, truncated, DHFR fusion (Arabidopsis thaliana, UniProt Q8VZS8); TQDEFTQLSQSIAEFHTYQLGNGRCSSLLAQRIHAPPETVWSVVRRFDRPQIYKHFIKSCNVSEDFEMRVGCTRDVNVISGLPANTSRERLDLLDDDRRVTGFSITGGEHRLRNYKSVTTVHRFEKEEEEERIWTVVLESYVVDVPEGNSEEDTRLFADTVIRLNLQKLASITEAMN
V100A: 4.07 µM
I57L: 4.71 µM
A13C: 6.19 µM
A35V: 43.9 µM
I57S: 484 µM
L8I: 11 µM
F5W: 3.83 µM
T39M: 2.08 µM
A35K: 160 µM
V76T: 37.5 µM
D3G: 4.92 µM
R155H: 37.8 µM
W134N: 5.05 µM
R155F: 193 µM
R24N: 8.6 µM
F56N: 732 µM
Q19D: 2.6 µM
E4L: 2.12 µM
T17P: 222 µM
E129S: 2.29 µM
E130H: 2.65 µM
I162A: 319 µM
S27R: 32.5 µM

Excerpt of the above (sample 1):
P4Q: 0.496
N6P: -0.349
L8F: 0.643
S1D: 1.73
S9R: 0.988
D13R: 0.357
S9N: 0.837
F11T: -0.426
L10P: -1.13
